# Measurements gathered from unrelated publications.
# Compare with care: the assays were run in different laboratories.
Structure (SMILES),method,matrix,time,pH,temperature,endpoint,result
CC[C@H](C)[C@H](NC(=O)[C@H](C)NC(=O)CNC(=O)[C@H](Cc1ccccc1)NC(=O)[C@H](CC(N)=O)NC(=O)[C@H](CC(N)=O)NC(=O)[C@H](CO)NC(=O)[C@H](CO)NC(=O)[C@H](Cc1c[nH]cn1)NC(=O)[C@@H](NC(=O)[C@H](CC(C)C)NC(=O)[C@H](Cc1ccccc1)NC(=O)[C@H](CC(N)=O)NC(=O)[C@H](C)NC(=O)[C@H](CC(C)C)NC(=O)[C@H](CCCNC(=N)N)NC(=O)[C@H](CCC(N)=O)NC(=O)[C@@H](NC(=O)[C@H](C)NC(=O)[C@@H]1CSSC[C@H](NC(=O)[C@@H](N)CCCCN)C(=O)N[C@@H](CC(N)=O)C(=O)N[C@@H]([C@@H](C)O)C(=O)N[C@@H](C)C(=O)N[C@@H]([C@@H](C)O)C(=O)N1)[C@@H](C)O[C@H]1O[C@H](CO[C@@H]2O[C@H](CO)[C@@H](O)[C@H](O)[C@H]2NC(C)=O)[C@H](O)[C@H](O[C@@H]2O[C@H](CO)[C@H](O)[C@H](O)[C@H]2O)[C@H]1NC(C)=O)C(C)C)C(=O)N[C@@H](CC(C)C)C(=O)N[C@@H](CO)C(=O)N[C@@H](CO)C(=O)N[C@H](C(=O)N[C@@H](CC(N)=O)C(=O)N[C@H](C(=O)NCC(=O)N[C@@H](CO)C(=O)N[C@@H](CC(N)=O)C(=O)N[C@H](C(=O)N[C@@H](Cc1ccc(O)cc1)C(N)=O)[C@@H](C)O)C(C)C)[C@@H](C)O,,PBS,1 h,pH 7.4,,thermodynamic solubility,0.05 mg/mL
C[n+]1ccc(-c2cc[n+](C)cc2)cc1,absorbance,water,,pH 7,,solubility,2700 mM
CC[C@H](C)[C@H](NC(=O)[C@H](C)NC(=O)CNC(=O)[C@H](Cc1ccccc1)NC(=O)[C@H](CC(N)=O)NC(=O)[C@H](CC(N)=O)NC(=O)[C@H](CO)NC(=O)[C@H](CO)NC(=O)[C@H](Cc1c[nH]cn1)NC(=O)[C@@H](NC(=O)[C@H](CC(C)C)NC(=O)[C@H](Cc1ccccc1)NC(=O)[C@H](CC(N)=O)NC(=O)[C@H](C)NC(=O)[C@H](CC(C)C)NC(=O)[C@H](CCCNC(=N)N)NC(=O)[C@H](CCC(N)=O)NC(=O)[C@@H](NC(=O)[C@H](C)NC(=O)[C@@H]1CSSC[C@H](NC(=O)[C@@H](N)CCCCN)C(=O)N[C@@H](CC(N)=O)C(=O)N[C@@H]([C@@H](C)O)C(=O)N[C@@H](C)C(=O)N[C@@H]([C@@H](C)O)C(=O)N1)[C@@H](C)O)C(C)C)C(=O)N[C@@H](CC(C)C)C(=O)N[C@@H](CO)C(=O)N[C@@H](CO)C(=O)N[C@H](C(=O)N[C@@H](CC(N)=O)C(=O)N[C@H](C(=O)NCC(=O)N[C@@H](CO)C(=O)N[C@@H](CC(N)=O)C(=O)N[C@H](C(=O)N[C@@H](Cc1ccc(O)cc1)C(N)=O)[C@@H](C)O)C(C)C)[C@@H](C)O[C@H]1O[C@H](CO[C@]2(C(=O)O)C[C@H](O)[C@@H](NC(C)=O)[C@H]([C@H](O)[C@H](O)CO)O2)[C@H](O)[C@H](O)[C@H]1NC(C)=O,,PBS,1 h,pH 7.4,,thermodynamic solubility,3.52 mg/mL
NC1(CNC(=O)Oc2cccc([C@H]3CCC[C@@]4(C3)OOC3(O4)C4CC5CC(C4)CC3C5)c2)CCCC1 (stereo partly shown),,PBS,,pH 7.4,,kinetic solubility,0.0876 mM
CC1COC2=C1C(=O)C(=O)c1c2ccc2c1C(OC(=O)CNC(=O)C(N)CO)CCC2(C)C (mixture of isomers),,PBS,,pH 4,25 °C,thermodynamic solubility,0.785 mg/mL
CCc1nnc(-c2c(OC)cc(-c3cnc4cc(-c5cnn(C)c5)ccn34)cc2OC)o1,,aqueous buffer,,pH 7.4,,kinetic solubility,< 0.0016 mM
CC1COC2=C1C(=O)C(=O)c1c2ccc2c1C(OC(=O)CNC(=O)C(N)CCC(=O)O)CCC2(C)C (mixture of isomers),,PBS,,pH 7.4,25 °C,thermodynamic solubility,1.5 mg/mL
Cc1ncsc1-c1ccc(CNC(=O)[C@@H]2C[C@@H](O)CN2C(=O)[C@@H](NC(=O)CCCCCCCCC(=O)N2CCN(c3ncc(-c4cc(NC(=O)c5ccc(F)cc5C(F)(F)F)c(N5C[C@@H](C)N(C)[C@@H](C)C5)cc4F)cn3)CC2)C(C)(C)C)cc1,,aqueous buffer,,pH 7.4,,kinetic solubility,0.000198 mM
O=C(c1cc(Cc2n[nH]c(=O)c3ccccc23)ccc1F)N1CC(CNC2CC2)C1,,water,,,,solubility,62.7 mg/mL
CC1COC2=C1C(=O)C(=O)c1c2ccc2c1C(OC(=O)CNC(=O)CN)CCC2(C)C (mixture of isomers),,PBS,,pH 5.5,25 °C,thermodynamic solubility,0.36 mg/mL

# Excerpt of the above:
Structure (SMILES),method,matrix,time,pH,temperature,endpoint,result
CCc1nnc(-c2c(OC)cc(-c3cnc4cc(-c5cnn(C)c5)ccn34)cc2OC)o1,,aqueous buffer,,pH 7.4,,kinetic solubility,< 0.0016 mM
